{"data": "Assay results from different studies", "note": "Parts stem from different laboratories: compare values within a part only."}
{"data": "Study 1", "target": "Histone acetyltransferase KAT6A, winged helix 2, GST fusion (KAT6A, Homo sapiens, UniProt Q92794, residues 85-181)", "technique": "protein binding microarray", "molecule type": "double-stranded DNA, one strand shown", "matrix": "in vitro", "concentration": "not given", "setting": "8-mer, flanks averaged, mean of 2 arrays, mostly near background", "baseline": "not given", "direction": "higher = stronger binding", "Construct (chain)": "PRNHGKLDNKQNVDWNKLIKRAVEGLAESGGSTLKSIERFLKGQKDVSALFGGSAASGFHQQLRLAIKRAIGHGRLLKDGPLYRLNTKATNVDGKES"}
{"Oligonucleotide": "GAGGATCA", "E-score": 0.017}
{"Oligonucleotide": "CCAGATGG", "E-score": 0.158}
{"Oligonucleotide": "CCCGAAGA", "E-score": 0.0428}
{"Oligonucleotide": "TCCCCCGA", "E-score": 0.124}
{"Oligonucleotide": "CCAGCCTA", "E-score": 0.00503}
{"Oligonucleotide": "CATTCTTC", "E-score": -0.102}
{"Oligonucleotide": "ATGGGTCC", "E-score": -0.151}
{"Oligonucleotide": "AGGATCGC", "E-score": -0.169}
{"Oligonucleotide": "AGCCGACA", "E-score": 0.0839}
{"Oligonucleotide": "GATGGCTA", "E-score": 0.0648}
{"Oligonucleotide": "ACATGTGA", "E-score": -0.306}
{"Oligonucleotide": "TCCGGACA", "E-score": -0.0073}
{"Oligonucleotide": "CCACATGA", "E-score": -0.207}
{"Oligonucleotide": "AGTTGGTA", "E-score": -0.048}
{"Oligonucleotide": "ATGGACTC", "E-score": -0.115}
{"Oligonucleotide": "GCTTGAGA", "E-score": -0.0216}
{"Oligonucleotide": "AAACGGCG", "E-score": 0.107}
{"Oligonucleotide": "AATACGGA", "E-score": -0.0594}
{"data": "Study 2", "target": "Interferon regulatory factor 7, full length, phosphomimetic (IRF7, Homo sapiens, UniProt Q92985, residues 1-503, S101K/S471D/S472D/S475D/S476D/S477D/S483D/S484D/S487D)", "technique": "protein-binding microarray", "molecule type": "double-stranded DNA, one strand shown", "matrix": "in vitro", "concentration": "250 nM", "setting": "60-bp whole probe", "with": "salmon DNA 0.4 mg/ml", "baseline": "random background probes", "direction": "higher = stronger binding", "shared flanks, not repeated": "GCCTAGCAC … GTCTTGATTCGCTTGACGCTGCTG", "sequence of UniProt Q92985 (whole entry, unmodified, looked up)": "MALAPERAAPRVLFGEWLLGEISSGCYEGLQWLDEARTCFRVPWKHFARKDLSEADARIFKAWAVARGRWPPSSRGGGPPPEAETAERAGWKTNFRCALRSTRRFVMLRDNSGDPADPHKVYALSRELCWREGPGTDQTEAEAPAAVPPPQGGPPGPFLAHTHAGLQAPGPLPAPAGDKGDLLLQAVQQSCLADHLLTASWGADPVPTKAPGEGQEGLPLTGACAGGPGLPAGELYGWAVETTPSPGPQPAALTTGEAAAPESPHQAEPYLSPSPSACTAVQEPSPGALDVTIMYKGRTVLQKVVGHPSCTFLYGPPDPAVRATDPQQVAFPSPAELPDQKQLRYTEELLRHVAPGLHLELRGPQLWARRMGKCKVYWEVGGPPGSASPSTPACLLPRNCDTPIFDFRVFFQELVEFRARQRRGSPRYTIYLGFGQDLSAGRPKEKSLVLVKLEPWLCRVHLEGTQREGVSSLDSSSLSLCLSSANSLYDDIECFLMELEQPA"}
{"Oligonucleotide": "AGTATGTTCACTATTTAAGGGTGCTAG", "log fluorescence [z-score]": 0.231}
{"Oligonucleotide": "TCACTTTTTTTTTTTTTACTGTGCTAG", "log fluorescence [z-score]": 0.834}
{"Oligonucleotide": "GACGATTTCAGTTCCCAGACGTGCTAG", "log fluorescence [z-score]": 0.982}
{"Oligonucleotide": "TTAGGACTGCTACTCCTTTAGTGCTAG", "log fluorescence [z-score]": -0.119}
{"Oligonucleotide": "TTAGGTTTCGACCATCGGTTAGTGCTA", "log fluorescence [z-score]": 2.43}
{"Oligonucleotide": "GGCAATTTGAGTCACTGTGTGTGCTAG", "log fluorescence [z-score]": -0.974}
{"Oligonucleotide": "GACGGTATGGACTTTCGGGACGTGCTA", "log fluorescence [z-score]": -0.552}
{"Oligonucleotide": "TCACAGATGTTTTTCATACTGTGCTAG", "log fluorescence [z-score]": 0.184}
{"Oligonucleotide": "GACGATCGCAGACTGGAGACGTGCTAG", "log fluorescence [z-score]": -0.381}
{"Oligonucleotide": "TTAGGTAACGACTATCGGTTAGTGCTA", "log fluorescence [z-score]": 0.0513}
{"Oligonucleotide": "GACGGTCTCCTACTTCTGACGTGCTAG", "log fluorescence [z-score]": -0.301}
{"Oligonucleotide": "ATTGATAGTTTCACAATGCCGTGCTAG", "log fluorescence [z-score]": 3.39}
{"Oligonucleotide": "TTGATAATTTTTTTCTAAGTGTGCTAG", "log fluorescence [z-score]": -0.0963}
{"Oligonucleotide": "TTAGAACTGAGTATCGAGTAGTGCTAG", "log fluorescence [z-score]": 0.0493}
{"Oligonucleotide": "TCAGGACTGCTTATCCTTTAGTGCTAG", "log fluorescence [z-score]": -0.0211}
{"Oligonucleotide": "TGTCCTTTTCTTTACTGATGGTGCTAG", "log fluorescence [z-score]": 1.56}
{"Oligonucleotide": "TTAGATCTCAGTTTCAATTAGTGCTAG", "log fluorescence [z-score]": 1.14}
{"data": "Study 3", "target": "Hepatocyte nuclear factor 3-alpha (Foxa1, Mus musculus, UniProt P35582, residues 1-468, full length assumed)", "technique": "EMSA with sequencing", "molecule type": "double-stranded DNA, one strand shown", "matrix": "in vitro", "concentration": "10 and 20 nM", "setting": "whole designed probe, mean of two concentrations, ends assumed", "baseline": "negative control set to 0", "direction": "higher = stronger binding", "Target sequence (chain)": "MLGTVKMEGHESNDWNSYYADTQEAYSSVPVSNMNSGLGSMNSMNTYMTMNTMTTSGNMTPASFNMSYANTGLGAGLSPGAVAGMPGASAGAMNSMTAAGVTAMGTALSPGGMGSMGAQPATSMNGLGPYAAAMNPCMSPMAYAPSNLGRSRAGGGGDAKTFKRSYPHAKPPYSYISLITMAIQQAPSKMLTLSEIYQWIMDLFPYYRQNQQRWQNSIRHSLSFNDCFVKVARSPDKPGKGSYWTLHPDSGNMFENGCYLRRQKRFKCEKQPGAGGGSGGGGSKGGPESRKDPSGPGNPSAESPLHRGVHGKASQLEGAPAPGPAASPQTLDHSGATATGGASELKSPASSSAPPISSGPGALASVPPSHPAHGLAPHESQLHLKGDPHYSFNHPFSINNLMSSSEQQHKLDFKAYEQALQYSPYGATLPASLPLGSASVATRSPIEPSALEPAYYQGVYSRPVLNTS"}
{"Oligonucleotide": "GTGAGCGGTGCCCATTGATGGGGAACATCTTCCCCCTCTTCCTTGCCCCACCAGCTCACCTTCCCGGGTTATTTGCACAAAGGAAAATAAATAAAGCCGGCATTCGTTAACCCTCTTCTGGCGCAAACTGCTGTTTGCTCTGCATCTAACATGGTCCTTACGCGAGGCGTGGCTCCGGGAGAGCAAAGCACCGTGTCAGGCGCATGATCCGGGGTGGCCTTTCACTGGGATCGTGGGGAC", "normalised bound fraction [ratio]": 0.374}
{"Oligonucleotide": "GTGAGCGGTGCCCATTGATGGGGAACTCTTTAATTTGGATGACTCTCCTTAGAGCAGCCAAATCAGCTTCTTGCTGATAACAGTAATCAGGTTTTATACTAAAGTCCCCAGTTAGGCAGAGTAAACAGGAAGCAGCCTGTTATTGATCTGTGTTATGGAAGGTTCTTTTCCACTGAGGAGACTGAATATTTTATACTGAAACCTTTTACTTCCTGTACCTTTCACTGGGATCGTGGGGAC", "normalised bound fraction [ratio]": 0.103}
{"Oligonucleotide": "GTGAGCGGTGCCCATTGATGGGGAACTTGAGTTTTTTCCACTTTTTGACTACTATGAATAATGCTTCTGTAAACATTCTTGTACAAGTTTCTTTGGGAAATATTTTTTCAGTTCTCCTGTGTGTACTTAGGAGTTGAATTGCTGAGTCATGTGGTAACTATGTTTAGCTTTTTGAGGAACTGCCAAACTATTTTCCAAAATGACTGCACCATTTTACAATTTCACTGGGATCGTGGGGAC", "normalised bound fraction [ratio]": 0.374}
{"Oligonucleotide": "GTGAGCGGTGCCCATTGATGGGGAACATCTTCCCCCTCTTCCTTGCCCCACCAGCTCACCTTCCCGGGTTATTTGCACAAAGGAAAATAAATAAAGCCGGCATTCGTTAACGCAGTTCTGGCGCAAACTGCTGTTTGCTCTGCATCTAACATGGTCCTTACGCGACGCCAGGCTCCGGGAGAGCAAAGCACCGTGTCAGGCGCATGATCCGGGCTCGCCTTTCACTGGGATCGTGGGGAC", "normalised bound fraction [ratio]": 0.384}
{"Oligonucleotide": "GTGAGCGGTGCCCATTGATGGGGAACATCTTCCCCCTCTTCCTTGCCCCACCAGCTCACCTACGGGGGTTATTTGCACAAAGGAAAATAAATAAAGCCGGCATTCGTTAACCCTCTTCACGCGCATACTGCTGTTTGCTCTGGATGAATCATGGTCCTTTGGCGACGCCAGGCTCCGGGAGAGCAAAGCACCGTGTCAGGGCCATGATCCGGGCTCGCCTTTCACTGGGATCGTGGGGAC", "normalised bound fraction [ratio]": 0.379}
{"Oligonucleotide": "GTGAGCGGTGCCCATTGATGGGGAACTCCTCATTAAATTTCAAGTTTCCACAAAATAAGAAAAGAAACAACTAAAGAAGAAATTGTTGGAAGGCATGGAGCAAAGTGTAAGAACAACTAAGTAAACATGTACATTTTGCATTTTTAAAAAATTCAGTGGCCATAATACCACTGGCCAACAGGCTGATCAAATAATCCCTGAAACAAAGAGTTATATGTTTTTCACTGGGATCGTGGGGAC", "normalised bound fraction [ratio]": 0.442}
{"data": "Study 4", "target": "Ras GTPase-activating protein-binding protein 1, full length (G3BP1, Homo sapiens, UniProt Q13283)", "technique": "RNA Bind-n-Seq", "molecule type": "RNA", "matrix": "in vitro", "concentration": "200 nM", "setting": "whole 134-nt RNA, ends assumed", "with": "150 mM LiCl", "baseline": "input library", "direction": "higher = stronger binding", "library": "7-deaza-guanosine replaces G", "sequence of UniProt Q13283 (whole entry, looked up)": "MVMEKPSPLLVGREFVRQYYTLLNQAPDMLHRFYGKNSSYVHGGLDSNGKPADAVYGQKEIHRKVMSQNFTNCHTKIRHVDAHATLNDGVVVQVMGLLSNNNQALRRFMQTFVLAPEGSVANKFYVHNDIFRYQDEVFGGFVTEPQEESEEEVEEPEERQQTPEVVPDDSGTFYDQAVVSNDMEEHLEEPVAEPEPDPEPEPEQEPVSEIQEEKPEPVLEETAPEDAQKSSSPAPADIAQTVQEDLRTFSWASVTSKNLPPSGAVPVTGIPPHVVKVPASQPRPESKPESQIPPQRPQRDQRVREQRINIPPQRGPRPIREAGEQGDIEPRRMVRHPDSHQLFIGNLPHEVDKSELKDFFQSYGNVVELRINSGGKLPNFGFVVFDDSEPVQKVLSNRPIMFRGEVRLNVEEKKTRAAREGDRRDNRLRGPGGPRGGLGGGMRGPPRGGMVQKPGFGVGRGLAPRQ"}
{"Oligonucleotide": "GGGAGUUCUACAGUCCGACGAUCUCAAGUCCUGUGCUACACAUCGUAUGUACCGAAUCGGUUUGGAAAAAGGUUUGGAAAGUAUUAUGUUACGCCGUUCGGAUCUGCACUUCCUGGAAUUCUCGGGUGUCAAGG", "log2 enrichment": -1.32}
{"Oligonucleotide": "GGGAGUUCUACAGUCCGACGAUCAGUCCUGUGCUACACAUCGUAUGUACCGAAUCGGCCCCGGGGCCCCGGGCCCCGGGGAAAGUAUUAUGUUACGCCGUUCGGAUCUGCACUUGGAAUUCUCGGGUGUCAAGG", "log2 enrichment": -2.06}
{"Oligonucleotide": "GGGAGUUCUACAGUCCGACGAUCCUCAAGUCCUGUGCUACACAUCGUAUGUACCGAAUCGGGUUGGUUGGGGUUGGGAAAGUAUUAUGUUACGCCGUUCGGAUCUGCACUUCCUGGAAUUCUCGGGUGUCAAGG", "log2 enrichment": 0.178}
{"Oligonucleotide": "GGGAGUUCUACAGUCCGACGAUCGUCCUGUGCUACACAUCGUAUGUACCGAAUCGGGGAAAGGGGUUUGGGGAAAAAGGGGAAAGUAUUAUGUUACGCCGUUCGGAUCUGCACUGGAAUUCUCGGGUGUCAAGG", "log2 enrichment": -0.952}
{"Oligonucleotide": "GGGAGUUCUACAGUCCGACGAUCUGGCAGAGAAAUUGCAGCUGCAGGAGCAGCUCCAGGCAGAAACCGAGCUGUGUGCCGAGGCUGAGGAGCUCCGGGCCCGCCUGACCGCCAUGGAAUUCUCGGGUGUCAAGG", "log2 enrichment": -0.763}
{"Oligonucleotide": "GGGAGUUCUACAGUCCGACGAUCAGUCCUGUGCUACACAUCGUAUGUACCGAAUCGGUUUGGUUUUUUUGGUUUUUUUGGAAAGUAUUAUGUUACGCCGUUCGGAUCUGCACUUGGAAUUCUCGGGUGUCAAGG", "log2 enrichment": -0.945}
{"Oligonucleotide": "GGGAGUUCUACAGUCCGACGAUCUGGCCCUGGUGGCAUGCGGGGAGGAAGAGGUGGCCUCAUGGCUCGUGGUGGUCCCGGUGGAAUGUUCAGAGGUGGCCGUGGUGGAGACAGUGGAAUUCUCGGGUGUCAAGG", "log2 enrichment": -0.126}
{"Oligonucleotide": "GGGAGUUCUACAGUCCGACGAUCUCAAGUCCUGUGCUACACAUCGUAUGUACCGAAUCGGCCCCGGCCCCGGCCCCGGAAAGUAUUAUGUUACGCCGUUCGGAUCUGCACUUCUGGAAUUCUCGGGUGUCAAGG", "log2 enrichment": -0.135}
{"Oligonucleotide": "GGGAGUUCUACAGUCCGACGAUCUGUGCUACACAUCGUAUGUACCGAAUCGGGGCCCCCCCGGCCCCCCCGGGGCCCCCCCGGGGAAAGUAUUAUGUUACGCCGUUCGGAUCUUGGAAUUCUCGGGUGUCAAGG", "log2 enrichment": 0.874}
{"Oligonucleotide": "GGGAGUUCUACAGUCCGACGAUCUGGCCCUGGUGGCAUGCGGGGAGGAAGAGGUGGCCUCAUGUAUCGUGGUGGUCCCGGUGGAAUGUUCAGAGGUGGCCGUGGUGGAGACAGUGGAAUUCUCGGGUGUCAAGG", "log2 enrichment": 0.0395}
{"Oligonucleotide": "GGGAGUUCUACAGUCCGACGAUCUAACUUUAGAGGAGGAUCUGAUGGAUAUGGCAGUGGACGUGGAUUUGGGGAUGGCUAUAAUGGGUAUGGCGGAGGACCUGGAGGUGGCAAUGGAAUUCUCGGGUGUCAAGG", "log2 enrichment": 0.0365}
{"note": "Repeated from above (study 1):"}
{"Oligonucleotide": "CCAGCCTA", "E-score": 0.00503}
{"Oligonucleotide": "GATGGCTA", "E-score": 0.0648}
{"Oligonucleotide": "AGCCGACA", "E-score": 0.0839}
